Published values gathered from unrelated publications.
A part holds a random share of what one study measured.

Sample 1 — method: competition protein-binding microarray; molecule type: double-stranded DNA, one strand shown; sample: in vitro; tested at: 2 µM; added: Cbf1 competitor, 0.05 µM; reading: higher = stronger binding
Target: Phosphate system positive regulatory protein PHO4, full length, GST-tagged (PHO4, Saccharomyces cerevisiae, UniProt P07270, residues 1-312)
Notes: whole 60-bp probe, lowest competitor level
Target sequence (chain): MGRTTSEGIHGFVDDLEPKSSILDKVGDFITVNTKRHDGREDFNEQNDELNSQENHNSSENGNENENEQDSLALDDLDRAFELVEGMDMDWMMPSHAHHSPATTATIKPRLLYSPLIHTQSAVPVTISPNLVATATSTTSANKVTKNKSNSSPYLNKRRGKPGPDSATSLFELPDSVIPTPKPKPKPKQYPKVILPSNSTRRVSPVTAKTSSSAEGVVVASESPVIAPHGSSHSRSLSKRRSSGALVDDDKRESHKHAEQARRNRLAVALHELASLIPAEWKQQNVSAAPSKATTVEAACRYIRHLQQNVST
Oligonucleotide	fluorescence intensity [a.u.]
GATCGATCGAATTTCCCCGTGCCGAAATTGTTCTGCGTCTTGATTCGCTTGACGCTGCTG	8000
CTAACGAAGGTTTTTCACGTGTTTTACAAGCCAAGTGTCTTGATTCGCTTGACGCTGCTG	12900
AAAGCGGTAATTTGGGAAGTGGGTGCAGATATCTATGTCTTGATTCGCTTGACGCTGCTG	4430
CTCTTCCTGAATTTGCACGGGGAACCAAGGCCTATCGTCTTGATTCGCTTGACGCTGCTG	7120
GAAACAGCTGCTACCCACGATGTAGTGTTTGAAACAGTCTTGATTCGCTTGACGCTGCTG	9460

Sample 2 — method: protein binding microarray; molecule type: double-stranded DNA, one strand shown; sample: in vitro; tested at: not given; relative to: not given; reading: higher = stronger binding
Target: Histone acetyltransferase KAT6A, both winged helices, GST fusion (KAT6A, Homo sapiens, UniProt Q92794, residues 1-181)
Notes: 8-mer, flanks averaged, mean of 2 arrays, mostly near background
Construct (chain): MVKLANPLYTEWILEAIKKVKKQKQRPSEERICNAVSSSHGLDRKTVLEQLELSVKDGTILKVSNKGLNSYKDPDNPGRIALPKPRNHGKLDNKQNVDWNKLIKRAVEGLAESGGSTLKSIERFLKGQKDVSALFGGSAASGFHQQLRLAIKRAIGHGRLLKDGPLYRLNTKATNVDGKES
Oligonucleotide	E-score
GGCGTCTA	0.167
CCAGAACG	0.107
AACAGGGC	-0.107
CTCCTGTC	-0.228
GGGAACCA	-0.00734
AGACGTTC	-0.0825
ATGCTAAA	-0.154
GATCAGTA	0.014

Sample 3 — method: RNAcompete; molecule type: RNA; sample: in vitro; tested at: 20 nM; notes: 7-mer, probes averaged, single round; relative to: mean of 7-mers; reading: higher = stronger binding
Target: PABPC1L2, full length, GST fusion (mouse, UniProt A0ABA7IW68)
Residues (chain): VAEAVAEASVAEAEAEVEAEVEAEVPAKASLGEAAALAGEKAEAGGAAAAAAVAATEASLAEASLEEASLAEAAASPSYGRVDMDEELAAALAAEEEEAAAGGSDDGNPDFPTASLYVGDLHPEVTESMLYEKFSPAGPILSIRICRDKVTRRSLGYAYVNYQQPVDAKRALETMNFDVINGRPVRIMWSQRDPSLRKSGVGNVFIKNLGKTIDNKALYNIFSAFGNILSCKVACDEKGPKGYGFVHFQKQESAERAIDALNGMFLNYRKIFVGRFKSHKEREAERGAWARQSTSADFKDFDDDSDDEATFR
Oligonucleotide	7-mer Z-score
CCGCAAG	-0.353
GAUAGAG	-0.0953
UAGCCAG	-0.173
UCUUGCA	-0.479
ACCGCUG	-0.315
AAUGAGU	-0.0337
GCCGCUA	-0.204
CCGAACC	-0.255
GGCGUUG	0.131
CGUGUGC	-0.182

Mixed results
Substance	target	assay	system	setting	how to read	endpoint	value
PhoQ, residues 284 288 289 292 302 303 NLALSC	PhoP, residues 12 14 15 18 19 HHYTI (Escherichia coli, UniProt P23836)	Sort-seq, measured: YFP reporter	E. coli	PhoQ-PhoP variant library, added: 10 µM Mg2+	relative to: high Mg2+ state, higher = stronger signaling	fold induction	1.18

A few entries again (mixed results):
Substance	target	assay	system	setting	how to read	endpoint	value
PhoQ, residues 284 288 289 292 302 303 NLALSC	PhoP, residues 12 14 15 18 19 HHYTI (Escherichia coli, UniProt P23836)	Sort-seq, measured: YFP reporter	E. coli	PhoQ-PhoP variant library, added: 10 µM Mg2+	relative to: high Mg2+ state, higher = stronger signaling	fold induction	1.18
